{"data": "Measurements gathered from unrelated publications", "note": "Each numbered part is a random draw from the data of one study; scales do not carry over between parts. “And” joins repeats or separate records; there may be more than shown.", "chain of UniProt P14616 (whole entry, looked up)": "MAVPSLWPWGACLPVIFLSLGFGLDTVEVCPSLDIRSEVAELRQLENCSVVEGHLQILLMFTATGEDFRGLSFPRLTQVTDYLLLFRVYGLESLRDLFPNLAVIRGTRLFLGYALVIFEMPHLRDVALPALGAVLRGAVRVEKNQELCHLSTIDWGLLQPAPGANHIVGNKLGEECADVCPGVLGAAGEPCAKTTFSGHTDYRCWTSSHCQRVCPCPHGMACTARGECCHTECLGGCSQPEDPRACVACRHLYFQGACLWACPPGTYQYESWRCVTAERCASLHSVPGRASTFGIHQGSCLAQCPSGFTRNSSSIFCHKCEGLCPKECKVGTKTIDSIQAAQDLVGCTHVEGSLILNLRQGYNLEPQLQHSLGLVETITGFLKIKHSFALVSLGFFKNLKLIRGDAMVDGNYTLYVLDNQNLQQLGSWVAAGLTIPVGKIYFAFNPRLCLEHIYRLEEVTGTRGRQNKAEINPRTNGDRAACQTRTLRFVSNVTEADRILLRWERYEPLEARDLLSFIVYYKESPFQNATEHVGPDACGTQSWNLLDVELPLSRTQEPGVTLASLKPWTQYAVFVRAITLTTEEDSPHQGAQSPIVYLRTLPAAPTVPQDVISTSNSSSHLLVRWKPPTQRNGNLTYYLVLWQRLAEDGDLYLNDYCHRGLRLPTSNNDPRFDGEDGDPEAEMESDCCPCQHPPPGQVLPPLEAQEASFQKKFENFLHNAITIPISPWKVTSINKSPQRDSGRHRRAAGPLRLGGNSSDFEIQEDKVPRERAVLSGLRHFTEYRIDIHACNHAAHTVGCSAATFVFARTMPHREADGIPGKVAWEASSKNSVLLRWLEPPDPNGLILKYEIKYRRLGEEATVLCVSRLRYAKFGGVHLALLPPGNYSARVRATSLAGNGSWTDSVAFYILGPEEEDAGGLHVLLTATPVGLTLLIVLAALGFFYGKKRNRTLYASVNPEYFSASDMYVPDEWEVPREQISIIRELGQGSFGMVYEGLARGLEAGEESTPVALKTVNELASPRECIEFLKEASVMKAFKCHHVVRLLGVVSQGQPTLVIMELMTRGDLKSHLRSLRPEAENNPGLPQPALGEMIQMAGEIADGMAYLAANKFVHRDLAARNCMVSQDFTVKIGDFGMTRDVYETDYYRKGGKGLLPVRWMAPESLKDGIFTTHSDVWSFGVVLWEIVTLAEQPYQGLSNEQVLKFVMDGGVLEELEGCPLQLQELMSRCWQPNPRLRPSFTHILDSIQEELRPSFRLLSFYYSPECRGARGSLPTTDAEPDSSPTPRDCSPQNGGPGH", "chain of UniProt Q96NX5 (whole entry, looked up)": "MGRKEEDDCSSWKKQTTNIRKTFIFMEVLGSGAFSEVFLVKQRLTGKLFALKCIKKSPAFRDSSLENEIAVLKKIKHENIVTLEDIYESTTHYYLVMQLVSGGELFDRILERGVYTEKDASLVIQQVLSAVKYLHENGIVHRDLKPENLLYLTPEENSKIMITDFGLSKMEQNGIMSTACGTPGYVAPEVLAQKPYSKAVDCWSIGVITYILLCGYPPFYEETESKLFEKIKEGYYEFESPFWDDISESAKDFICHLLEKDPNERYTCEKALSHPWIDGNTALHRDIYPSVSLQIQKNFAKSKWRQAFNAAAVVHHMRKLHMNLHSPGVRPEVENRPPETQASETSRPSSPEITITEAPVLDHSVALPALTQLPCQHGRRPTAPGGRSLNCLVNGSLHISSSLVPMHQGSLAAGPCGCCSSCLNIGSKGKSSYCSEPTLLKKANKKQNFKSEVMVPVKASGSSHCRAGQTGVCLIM", "chain of UniProt P78356 (whole entry, looked up)": "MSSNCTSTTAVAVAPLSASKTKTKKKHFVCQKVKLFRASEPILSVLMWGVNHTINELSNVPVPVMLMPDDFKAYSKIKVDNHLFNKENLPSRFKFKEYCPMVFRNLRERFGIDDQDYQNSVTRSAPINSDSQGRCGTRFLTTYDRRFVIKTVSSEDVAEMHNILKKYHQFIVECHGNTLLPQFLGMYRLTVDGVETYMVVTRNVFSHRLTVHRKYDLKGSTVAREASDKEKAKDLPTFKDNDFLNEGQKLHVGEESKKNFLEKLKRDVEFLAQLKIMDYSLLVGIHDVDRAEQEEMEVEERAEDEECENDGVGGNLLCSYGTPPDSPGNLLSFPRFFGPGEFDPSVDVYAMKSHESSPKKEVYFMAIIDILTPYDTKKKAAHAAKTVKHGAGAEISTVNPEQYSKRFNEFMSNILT"}
{"data": "Sample 1", "target": "DNA polymerase theta, ATPase domain (POLQ, Homo sapiens, UniProt O75417)", "effect on": "enzyme activity", "mode": "inhibitor", "concentration": "77 µM", "baseline": "untreated", "chain of UniProt O75417 (whole entry, unmodified, looked up)": "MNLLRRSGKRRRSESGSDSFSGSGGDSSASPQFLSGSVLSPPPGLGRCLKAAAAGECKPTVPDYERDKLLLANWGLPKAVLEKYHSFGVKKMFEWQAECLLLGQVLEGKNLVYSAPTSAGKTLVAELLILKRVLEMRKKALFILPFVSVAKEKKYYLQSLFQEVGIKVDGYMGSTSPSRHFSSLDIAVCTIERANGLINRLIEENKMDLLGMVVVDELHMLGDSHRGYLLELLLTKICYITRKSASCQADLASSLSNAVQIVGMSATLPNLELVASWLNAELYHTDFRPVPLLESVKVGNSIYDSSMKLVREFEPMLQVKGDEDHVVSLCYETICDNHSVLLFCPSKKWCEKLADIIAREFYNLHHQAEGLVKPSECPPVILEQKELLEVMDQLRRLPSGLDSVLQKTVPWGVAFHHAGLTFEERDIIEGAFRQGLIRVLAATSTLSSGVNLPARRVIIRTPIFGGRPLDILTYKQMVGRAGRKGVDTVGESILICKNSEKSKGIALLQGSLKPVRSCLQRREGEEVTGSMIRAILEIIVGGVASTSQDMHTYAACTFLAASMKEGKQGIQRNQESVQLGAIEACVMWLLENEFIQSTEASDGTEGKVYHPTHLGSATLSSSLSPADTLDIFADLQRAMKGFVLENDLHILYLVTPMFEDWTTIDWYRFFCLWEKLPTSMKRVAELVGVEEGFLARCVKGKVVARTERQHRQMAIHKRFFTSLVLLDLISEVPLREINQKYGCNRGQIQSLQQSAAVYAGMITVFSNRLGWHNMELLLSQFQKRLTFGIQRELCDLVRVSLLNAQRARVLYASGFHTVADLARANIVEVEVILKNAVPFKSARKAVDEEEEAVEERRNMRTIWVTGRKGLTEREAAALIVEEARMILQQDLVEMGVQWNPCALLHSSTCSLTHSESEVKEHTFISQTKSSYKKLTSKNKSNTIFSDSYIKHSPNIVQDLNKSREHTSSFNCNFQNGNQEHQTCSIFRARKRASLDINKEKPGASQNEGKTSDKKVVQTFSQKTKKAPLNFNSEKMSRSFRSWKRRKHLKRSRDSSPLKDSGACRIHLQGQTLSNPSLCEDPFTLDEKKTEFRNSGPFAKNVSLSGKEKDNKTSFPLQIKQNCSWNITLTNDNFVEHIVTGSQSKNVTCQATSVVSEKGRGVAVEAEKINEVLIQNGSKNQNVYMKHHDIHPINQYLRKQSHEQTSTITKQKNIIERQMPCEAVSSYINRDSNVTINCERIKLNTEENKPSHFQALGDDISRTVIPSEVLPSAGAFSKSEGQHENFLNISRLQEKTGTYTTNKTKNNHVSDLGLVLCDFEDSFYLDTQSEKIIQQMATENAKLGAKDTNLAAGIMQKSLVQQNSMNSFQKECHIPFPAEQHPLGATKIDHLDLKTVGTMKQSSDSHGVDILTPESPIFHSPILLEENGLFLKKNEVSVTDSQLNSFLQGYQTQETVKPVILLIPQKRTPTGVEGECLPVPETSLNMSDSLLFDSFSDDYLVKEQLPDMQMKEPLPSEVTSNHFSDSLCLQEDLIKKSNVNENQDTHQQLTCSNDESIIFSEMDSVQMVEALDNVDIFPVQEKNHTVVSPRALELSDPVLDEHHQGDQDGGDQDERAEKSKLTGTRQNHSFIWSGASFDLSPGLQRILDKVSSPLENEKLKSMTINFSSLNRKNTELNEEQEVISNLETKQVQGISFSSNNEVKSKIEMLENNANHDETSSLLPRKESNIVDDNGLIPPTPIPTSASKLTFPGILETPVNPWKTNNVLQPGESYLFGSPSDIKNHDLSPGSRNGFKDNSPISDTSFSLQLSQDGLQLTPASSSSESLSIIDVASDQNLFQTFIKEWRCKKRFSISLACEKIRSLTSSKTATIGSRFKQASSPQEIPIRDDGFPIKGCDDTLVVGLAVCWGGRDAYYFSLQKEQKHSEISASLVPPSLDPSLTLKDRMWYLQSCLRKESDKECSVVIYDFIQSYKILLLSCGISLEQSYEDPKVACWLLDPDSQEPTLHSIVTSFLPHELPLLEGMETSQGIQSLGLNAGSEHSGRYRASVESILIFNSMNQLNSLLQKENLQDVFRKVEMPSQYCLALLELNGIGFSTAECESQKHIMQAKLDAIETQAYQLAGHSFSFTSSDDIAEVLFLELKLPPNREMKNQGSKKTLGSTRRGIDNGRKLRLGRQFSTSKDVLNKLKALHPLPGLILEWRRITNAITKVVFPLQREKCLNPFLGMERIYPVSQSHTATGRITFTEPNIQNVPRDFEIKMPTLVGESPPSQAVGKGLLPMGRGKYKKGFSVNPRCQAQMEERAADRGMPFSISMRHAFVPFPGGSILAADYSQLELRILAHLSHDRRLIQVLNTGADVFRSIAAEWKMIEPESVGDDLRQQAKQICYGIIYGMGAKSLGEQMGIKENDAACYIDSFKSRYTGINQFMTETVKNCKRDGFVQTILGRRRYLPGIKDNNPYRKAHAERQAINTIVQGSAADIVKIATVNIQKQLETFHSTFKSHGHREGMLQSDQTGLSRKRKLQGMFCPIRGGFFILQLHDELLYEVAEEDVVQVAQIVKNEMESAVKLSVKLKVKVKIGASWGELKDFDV"}
{"Structure (SMILES)": "CC1CCc2c(N3CCC(O)CC3)c(F)cc3c(=O)c(C(=O)O)cn1c23 (stereo not shown)", "remaining activity": "97.9% and 78.8%"}
{"Structure (SMILES)": "C[C@H]1NC(=O)NC1=O", "remaining activity": "100%"}
{"Structure (SMILES)": "COc1cc(NC(=O)c2ccccn2)ccc1Cl", "remaining activity": "101%"}
{"Structure (SMILES)": "C[C@@H]1[C@H](O)[C@@H](C)/C=C/C=C/C=C/C=C/C=C/C=C/C=C/[C@H](O[C@@H]2O[C@H](C)[C@@H](O)[C@H](N)[C@@H]2O)C[C@@H]2O[C@](O)(C[C@@H](O)C[C@@H](O)[C@H](O)CC[C@@H](O)C[C@@H](O)CC(=O)O[C@H]1C)C[C@H](O)[C@H]2C(=O)O", "remaining activity": "88.6% and 90.8%"}
{"data": "Sample 2", "cell line": "HuT78", "concentration": "2 µM", "time": "48 h", "baseline": "untreated"}
{"SMILES": "COc1ccc2c(c1)c(C1=C(c3c[nH]c4ccccc34)C(=O)NC1=O)cn2CCCN(C)C", "viability [%]": 126}
{"SMILES": "CC(C)n1nc(-c2ccc3oc(N)nc3c2)c2c(N)ncnc21", "viability [%]": 20.1}
{"SMILES": "COc1cc(OC)c(/C=C/S(=O)(=O)Cc2ccc(OC)c(NCC(=O)O)c2)c(OC)c1", "viability [%]": 30.9}
{"SMILES": "CC(C)(C)c1nc(-c2cccc(NS(=O)(=O)c3c(F)cccc3F)c2F)c(-c2ccnc(N)n2)s1", "viability [%]": 77.3}
{"data": "Sample 3", "target": "Calcium/calmodulin-dependent protein kinase type 1B (PNCK, Homo sapiens, UniProt Q6P2M8)", "effect on": "enzyme activity", "mode": "inhibitor", "concentration": "0.5 µM", "baseline": "control", "chain of UniProt Q6P2M8 (whole entry, looked up)": "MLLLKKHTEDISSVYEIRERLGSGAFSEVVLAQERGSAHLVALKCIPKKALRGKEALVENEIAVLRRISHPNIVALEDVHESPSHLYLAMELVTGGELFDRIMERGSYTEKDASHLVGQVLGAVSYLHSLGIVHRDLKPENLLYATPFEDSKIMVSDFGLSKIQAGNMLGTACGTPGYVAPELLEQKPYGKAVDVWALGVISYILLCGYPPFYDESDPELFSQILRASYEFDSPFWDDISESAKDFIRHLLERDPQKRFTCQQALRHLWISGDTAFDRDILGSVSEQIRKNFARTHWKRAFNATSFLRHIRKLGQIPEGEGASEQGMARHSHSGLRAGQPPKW"}
{"Structure (SMILES)": "O=C(Nc1cccc(Nc2cc(Nc3cccc(C(F)(F)F)c3)ncn2)c1)C1CC1", "remaining activity [%]": 101}
{"Structure (SMILES)": "Nc1[nH]nc2nc3ccccc3nc12", "remaining activity [%]": 102}
{"Structure (SMILES)": "O=C(O)c1ccc2c3c1cccc3c(=O)n1c3ccccc3nc21", "remaining activity [%]": 101}
{"Structure (SMILES)": "O=C1NC(=O)C(c2cn(CCCO)c3ncccc23)=C1c1cnccn1", "remaining activity [%]": 94.9}
{"Structure (SMILES)": "Cc1ccc(NC(=O)c2ccc(CN3CCN(C)CC3)cc2)cc1Nc1nc(-c2cccnc2)cs1", "remaining activity [%]": 97}
{"Structure (SMILES)": "CC(C)[C@H](CO)Nc1nc(Nc2cc(N)cc(Cl)c2)c2ncn(C(C)C)c2n1", "remaining activity [%]": 132}
{"Structure (SMILES)": "Cc1ccc(Nc2nccc(N(C)c3ccc4c(C)n(C)nc4c3)n2)cc1S(N)(=O)=O", "remaining activity [%]": 95.9}
{"Structure (SMILES)": "CO[C@H]1C[C@@H]2CC[C@@H](C)[C@@](O)(O2)C(=O)C(=O)N2CCCC[C@H]2C(=O)O[C@H]([C@H](C)C[C@@H]2CC[C@@H](O)[C@H](OC)C2)CC(=O)[C@H](C)/C=C(\\C)[C@@H](O)[C@@H](OC)C(=O)[C@H](C)C[C@H](C)/C=C/C=C/C=C/1C", "remaining activity [%]": 95.4}
{"Structure (SMILES)": "Nc1ncnc2n[nH]c(Nc3ccc(F)cc3)c12", "remaining activity [%]": 98.4}
{"Structure (SMILES)": "CNC(=O)c1cc(Oc2ccc(NC(=O)Nc3ccc(Cl)c(C(F)(F)F)c3)cc2)ccn1", "remaining activity [%]": 94.7}
{"Structure (SMILES)": "N#CC(C#N)=C(N)/C(C#N)=C/c1ccc(O)cc1", "remaining activity [%]": 97.3}
{"Structure (SMILES)": "COc1ccc(CNC(=O)Nc2ncc([N+](=O)[O-])s2)cc1", "remaining activity [%]": 99.3}
{"Structure (SMILES)": "Oc1ccc(-c2nc(-c3ccncc3)c(-c3ccc(F)cc3)[nH]2)cc1", "remaining activity [%]": 99.7}
{"Structure (SMILES)": "O=c1c2ccccc2[nH]c(=S)n1CCN1CCC(=C(c2ccc(F)cc2)c2ccc(F)cc2)CC1", "remaining activity [%]": 109}
{"Structure (SMILES)": "NCCNc1ncc(C(N)=O)c(Nc2cccc(C(F)(F)F)c2)n1", "remaining activity [%]": 57.3}
{"Structure (SMILES)": "CCOC(=O)c1c(C)[nH]c(/C=C2\\C(=O)Nc3ccccc32)c1C", "remaining activity [%]": 88.6}
{"data": "Sample 4", "Structure (SMILES)": "CCOc1ccc(Nc2c3c(nc4ccccc24)CCC3)cc1", "organism": "Leishmania donovani", "effect on": "parasite killing", "strain": "DD8"}
{"test system": "intracellular amastigotes", "setting": "40 µM, 96 h", "inhibition": "100%"}
{"test system": "promastigotes", "setting": "1.66 µM, 24 h", "inhibition": "35% and 30%"}
{"test system": "promastigotes", "setting": "1.66 µM, 72 h", "inhibition": "39% and 41% and 40%"}
{"test system": "intracellular amastigotes", "setting": "2 µM, 72 h", "inhibition": "80% and 84% and 81%"}
{"data": "Sample 5", "SMILES": "CC(=O)C1=C(C)N(c2cccc(C(F)(F)F)c2)C(=O)N[C@@H]1c1ccc(C#N)nc1", "effect on": "cell-free assay", "method": "competition with immobilised ligand", "concentration": "1 µM"}
{"target": "FLT3 (Homo sapiens, UniProt P36888, F691L/ITD)", "remaining binding": "87.4%"}
{"target": "INSRR (Homo sapiens, UniProt P14616)", "remaining binding": "99.6%"}
{"target": "PRKCE (Homo sapiens, UniProt Q02156)", "remaining binding": "73.9%"}
{"target": "PIP4K2B (Homo sapiens, UniProt P78356)", "remaining binding": "52.8%"}
{"target": "FLT3 (Homo sapiens, UniProt P36888, D835V)", "remaining binding": "64.2%"}
{"target": "CAMK1G (Homo sapiens, UniProt Q96NX5)", "remaining binding": "100%"}
{"note": "For quick reference, copied from above (sample 3):"}
{"Structure (SMILES)": "Nc1ncnc2n[nH]c(Nc3ccc(F)cc3)c12", "remaining activity [%]": 98.4}
{"Structure (SMILES)": "Cc1ccc(NC(=O)c2ccc(CN3CCN(C)CC3)cc2)cc1Nc1nc(-c2cccnc2)cs1", "remaining activity [%]": 97}
